Published values collected from several papers.
Each line is one published result; not all experiments were run side by side.
Target: Serine/threonine-protein kinase PLK1 (PLK1, Homo sapiens, UniProt P53350)
Chain of UniProt P53350 (whole entry, looked up): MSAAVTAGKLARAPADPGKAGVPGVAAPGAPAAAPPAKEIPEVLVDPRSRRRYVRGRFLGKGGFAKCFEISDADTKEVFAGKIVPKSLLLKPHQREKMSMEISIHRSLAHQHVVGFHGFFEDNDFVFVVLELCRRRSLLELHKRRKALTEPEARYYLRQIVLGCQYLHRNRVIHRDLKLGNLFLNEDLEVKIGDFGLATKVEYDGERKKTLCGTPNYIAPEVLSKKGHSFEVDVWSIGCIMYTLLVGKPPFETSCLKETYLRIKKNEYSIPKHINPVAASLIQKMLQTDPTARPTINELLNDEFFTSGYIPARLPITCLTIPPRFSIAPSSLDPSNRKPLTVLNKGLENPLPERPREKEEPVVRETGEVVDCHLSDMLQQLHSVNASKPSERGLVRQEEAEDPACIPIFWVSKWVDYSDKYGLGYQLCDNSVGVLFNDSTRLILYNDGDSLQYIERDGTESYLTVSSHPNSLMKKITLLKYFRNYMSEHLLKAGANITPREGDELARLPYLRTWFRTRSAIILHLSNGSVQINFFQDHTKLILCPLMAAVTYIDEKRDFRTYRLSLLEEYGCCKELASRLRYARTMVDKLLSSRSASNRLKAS

CCOC(=O)[C@@H]1Cc2c(cc([N+](=O)[O-])cc2[N+](=O)[O-])[C@H](O)[C@]12C(=O)Nc1ccc(Br)cc12  remaining binding (binding, competition with immobilised ligand; 0.1 µM): 69%
CS(C)(=O)=Nc1ccc(-c2ccc(-c3nc4cc(O[C@@H]5CO[C@H]6[C@@H]5OC[C@H]6O)[nH]c4cc3F)cc2)cc1  inhibition (enzyme activity, inhibitor; 10 µM): 8%
CC(C)[C@H]1NC(=O)C[C@H]2/C=C/CCSSC[C@@H](NC1=O)C(=O)N[C@H](Cc1cccc3ccccc13)C(=O)NCC(=O)O2  inhibition (enzyme activity, inhibitor; 10 µM): -6.6%
CN(C)[C@H]1C[C@@]23CC[C@@]4(O2)C(=CC[C@]2(C)[C@@H](c5ccc6ccncc6c5)CC[C@H]24)C=C3[C@@H](O)[C@@H]1O  inhibition (ATP probe labelling, inhibitor, KiNativ profiling; 1 µM): -9.5%
O=C1NC(=O)c2c1c1cc(F)c[n+]3c1c1c2c2cc(O)ccc2[n]1[Ru-4]312([N]=C=S)[S+]3CC[S+]1CC[S+]2CC3 (stereo not drawn)  remaining activity (enzyme activity; 100 nM, human enzyme, added: 10 µM ATP; relative to: untreated): 97%
Cc1cccc(-c2ccc3nc(NC(=O)C4CCCO4)nn3c2)c1 (stereo not drawn)  remaining activity (enzyme activity; 10 µM): 56%
Nc1ccc(/C=C/C(=O)N2CCc3c(oc4c(-c5ccc(F)cc5)cc(-c5ccc(C(=O)N6CCC(F)(F)CC6)cn5)cc34)C2)cn1  remaining binding (binding, competition with immobilised ligand; 1 µM): 100%
Cc1cccc(-c2ccc3nc(NC(=O)C4CCCCC4)nn3c2)c1  remaining activity (enzyme activity; 10 µM): 83%
C[C@H](NCc1ccc(-c2ccc(C(F)(F)F)cc2)cc1)C(N)=O  inhibition (cell-free assay, competition with immobilised ligand; 1 µM): 11%

For quick reference, copied from above:
CN(C)[C@H]1C[C@@]23CC[C@@]4(O2)C(=CC[C@]2(C)[C@@H](c5ccc6ccncc6c5)CC[C@H]24)C=C3[C@@H](O)[C@@H]1O  inhibition (ATP probe labelling, inhibitor, KiNativ profiling; 1 µM): -9.5%
